# Assay results of several laboratories.
# A part holds a random share of what one study measured.

# Sample 1 — method: protein-binding microarray; molecule type: double-stranded DNA, one strand shown; medium: in vitro; tested at: 2540 nM top; setting: 60-bp whole probe; added: salmon DNA 0.4 mg/ml; baseline: random background probes; direction: higher = stronger binding; all sequences stand within: GCCTAGCAC … GTCTTGATTCGCTTGACGCTGCTG
# Target: Interferon regulatory factor 3, full length, phosphomimetic (IRF3, Homo sapiens, UniProt Q14653, residues 1-427, S386D/S396D/S398D/S402D/T404D/S405D)
# Chain of UniProt Q14653 (whole entry, unmodified, looked up): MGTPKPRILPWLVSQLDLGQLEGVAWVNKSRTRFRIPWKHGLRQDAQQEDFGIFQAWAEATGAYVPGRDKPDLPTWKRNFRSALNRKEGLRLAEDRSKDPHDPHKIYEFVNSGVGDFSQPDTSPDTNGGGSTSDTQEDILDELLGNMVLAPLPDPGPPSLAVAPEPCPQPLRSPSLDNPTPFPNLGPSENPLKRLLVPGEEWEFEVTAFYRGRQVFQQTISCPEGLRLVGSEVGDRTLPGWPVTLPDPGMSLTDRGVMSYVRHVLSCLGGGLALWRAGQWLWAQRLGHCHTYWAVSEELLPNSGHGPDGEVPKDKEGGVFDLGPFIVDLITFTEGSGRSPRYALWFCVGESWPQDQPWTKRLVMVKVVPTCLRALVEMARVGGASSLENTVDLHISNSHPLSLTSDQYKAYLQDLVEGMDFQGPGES
Oligonucleotide,fitted relative affinity
GAGGGACTGGGTATCGGGACGTGCTAG,-0.487 z-score
GACGGACTGCTTATACTGACGTGCTAG,-0.384 z-score
TCAGAACTGAGACTGGATTAGTGCTAG,0.121 z-score
TTAGAGCTGGGGTTTCGATTAGTGCTA,0.884 z-score
TTAGAACTGAGCATCGATTAGTGCTAG,-0.374 z-score
TTAGGTATCCGTTTCGGTTAGTGCTAG,7.69 z-score
ATTTTTTTCTAAGTAAACCCGTGCTAG,1.08 z-score

# Sample 2 — method: protein binding microarray; molecule type: double-stranded DNA, one strand shown; medium: in vitro; tested at: not given; baseline: not given; direction: higher = stronger binding
# Target: Histone acetyltransferase KAT6A, both winged helices, GST fusion (KAT6A, Homo sapiens, UniProt Q92794, residues 1-181)
# Setting: 8-mer, flanks averaged, mean of 2 arrays, mostly near background
# Target sequence (chain): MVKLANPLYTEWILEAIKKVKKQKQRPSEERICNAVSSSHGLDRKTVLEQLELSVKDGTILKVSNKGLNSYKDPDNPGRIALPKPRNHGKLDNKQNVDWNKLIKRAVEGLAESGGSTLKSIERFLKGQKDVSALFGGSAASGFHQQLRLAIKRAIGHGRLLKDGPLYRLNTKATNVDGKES
Oligonucleotide,E-score
ATTCCAGG,-0.207
GTGTGTGA,-0.152
AAAAGAGT,-0.146
AAAAGCTT,0.157
GAGACAGC,8e-05
ATGTCGAA,-0.0518

# Sample 3 — method: universal PBM; molecule type: double-stranded DNA, one strand shown; medium: in vitro; tested at: 600 nM; direction: higher = stronger binding
# Target: Sal-like protein 4, full length isoform A (SALL4, Homo sapiens, UniProt Q9UJQ4, residues 1-1053)
# Chain of UniProt Q9UJQ4 (whole entry, looked up): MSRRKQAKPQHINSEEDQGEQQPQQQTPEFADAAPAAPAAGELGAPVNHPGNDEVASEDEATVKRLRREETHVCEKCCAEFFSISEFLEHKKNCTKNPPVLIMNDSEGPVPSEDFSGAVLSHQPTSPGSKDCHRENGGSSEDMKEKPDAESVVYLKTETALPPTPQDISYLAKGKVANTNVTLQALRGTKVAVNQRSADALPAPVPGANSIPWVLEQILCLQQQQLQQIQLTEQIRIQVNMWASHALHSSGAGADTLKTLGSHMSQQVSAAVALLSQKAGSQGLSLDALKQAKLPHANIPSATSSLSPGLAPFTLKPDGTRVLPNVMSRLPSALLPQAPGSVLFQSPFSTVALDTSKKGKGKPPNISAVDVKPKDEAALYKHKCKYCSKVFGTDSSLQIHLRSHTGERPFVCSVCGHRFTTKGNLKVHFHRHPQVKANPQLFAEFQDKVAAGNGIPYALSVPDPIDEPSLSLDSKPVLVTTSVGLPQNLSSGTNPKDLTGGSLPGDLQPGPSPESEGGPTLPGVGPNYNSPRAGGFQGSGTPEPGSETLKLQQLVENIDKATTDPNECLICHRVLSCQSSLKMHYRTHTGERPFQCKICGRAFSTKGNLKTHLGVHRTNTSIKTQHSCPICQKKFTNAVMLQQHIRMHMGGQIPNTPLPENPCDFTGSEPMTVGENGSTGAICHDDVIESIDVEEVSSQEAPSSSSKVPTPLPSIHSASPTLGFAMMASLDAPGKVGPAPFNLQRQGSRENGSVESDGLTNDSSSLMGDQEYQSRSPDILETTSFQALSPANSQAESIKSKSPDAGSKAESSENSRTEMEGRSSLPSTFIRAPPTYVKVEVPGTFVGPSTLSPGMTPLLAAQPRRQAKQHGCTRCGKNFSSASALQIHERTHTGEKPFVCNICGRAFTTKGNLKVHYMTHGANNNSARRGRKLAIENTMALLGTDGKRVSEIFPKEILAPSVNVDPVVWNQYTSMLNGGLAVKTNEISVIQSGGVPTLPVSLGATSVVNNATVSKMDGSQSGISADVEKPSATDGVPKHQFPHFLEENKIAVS
# Setting: 8-mer, flanks averaged, mean of replicates
Oligonucleotide,E-score
CAGATCTG,-0.246
ATGTCTAG,0.252
CATAATCA,0.369
GACACTTA,0.0602
AGGTATCC,-0.0391

# Other studies, line by line
Substance,target,assay,system,conditions,scale,quantity,result
"PhoQ, residues 284 288 289 292 302 303 SLGVVW","PhoP, residues 12 14 15 18 19 LHTVM (Escherichia coli, UniProt P23836)","Sort-seq, measured: YFP reporter",E. coli,"PhoQ-PhoP variant library, added: 10 µM Mg2+","baseline: high Mg2+ state, higher = stronger signaling",fold induction,23.3
